Measurements of several laboratories.
Numbered parts are unrelated; each lists some results of a single study.

Series 1
Target: PABPC1L2, full length, GST fusion (mouse, UniProt A0ABA7IW68)
Method: RNAcompete
Molecule type: RNA
Matrix: in vitro
Tested at: 20 nM
Setting: 7-mer, probes averaged, single round
Relative to: mean of 7-mers
Reading: higher = stronger binding
Construct (chain): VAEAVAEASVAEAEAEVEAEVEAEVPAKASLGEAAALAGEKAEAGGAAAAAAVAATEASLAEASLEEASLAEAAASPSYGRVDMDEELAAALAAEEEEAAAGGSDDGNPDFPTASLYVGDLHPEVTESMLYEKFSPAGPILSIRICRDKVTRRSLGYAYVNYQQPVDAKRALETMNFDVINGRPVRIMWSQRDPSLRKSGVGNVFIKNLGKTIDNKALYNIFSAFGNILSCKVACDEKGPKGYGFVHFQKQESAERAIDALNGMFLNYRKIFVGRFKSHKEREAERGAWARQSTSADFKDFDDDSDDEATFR
The 7-mer Z-score of `GUCAUCU` is reported as -0.258.
With `GUGUCGC` the 7-mer Z-score was -0.215.
The 7-mer Z-score of `UGCAACU` is reported as -0.157.
With `CCUAAAC` the 7-mer Z-score was 0.189.
`ACCUGUC` gave a 7-mer Z-score of -0.269.
The 7-mer Z-score of `AAGUGGG` is reported as 0.863.
`GAACUUG` has a 7-mer Z-score of -0.204.
With `CUGUUUC` the 7-mer Z-score was -0.436.
For `CUUUACG`, the 7-mer Z-score was -0.199.
`CCACCGC` gave a 7-mer Z-score of -0.295.
`AUAUGGA` has a 7-mer Z-score of 0.233.
The 7-mer Z-score of `GAAUCUG` is reported as -0.182.
`UUCAGCG` has a 7-mer Z-score of -0.287.
With `UUUGAUA` the 7-mer Z-score was -0.17.
`GUCAGAA` gave a 7-mer Z-score of 0.204.
For `GAGGUUC`, the 7-mer Z-score was -0.193.
The 7-mer Z-score of `CAAGCAC` is reported as -0.0554.
For `CACCAGG`, the 7-mer Z-score was -0.0844.
`ACCUUGG` has a 7-mer Z-score of -0.233.
`GAGUCUC` has a 7-mer Z-score of -0.4.
For `AACUGAC`, the 7-mer Z-score was 0.336.
`UGGUGUU` gave a 7-mer Z-score of -0.46.
The 7-mer Z-score of `AGCCCAU` is reported as -0.307.

Series 2
Target: Histone acetyltransferase KAT6A, winged helix 2, GST fusion (KAT6A, Homo sapiens, UniProt Q92794, residues 85-181)
Method: protein binding microarray
Molecule type: double-stranded DNA, one strand shown
Matrix: in vitro
Tested at: not given
Setting: 8-mer, flanks averaged, mean of 2 arrays, mostly near background
Relative to: not given
Reading: higher = stronger binding
Residues (chain): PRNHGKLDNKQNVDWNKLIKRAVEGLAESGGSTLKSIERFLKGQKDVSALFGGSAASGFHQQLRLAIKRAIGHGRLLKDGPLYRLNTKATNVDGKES
`CAACGCAA` gave an E-score of 0.114.
`CTTTCCCC` gave an E-score of 0.0466.
With `AGAAACAA` the E-score was 0.118.
With `GCTGAGCA` the E-score was 0.142.
`TAGGCCAA` has an E-score of 0.0384.
With `CTGTACAA` the E-score was -0.00397.
The E-score of `TGCTTCCA` is reported as 0.025.
With `CAGGTAGC` the E-score was -0.00205.
For `AGTGGTAT`, the E-score was -0.0569.
`CCTGCCCC` gave an E-score of 0.132.
With `AGTCAATG` the E-score was -0.188.
For `ACTAATAT`, the E-score was -0.081.
`AGTAGGCC` gave an E-score of 0.00407.
The E-score of `AATGTCAG` is reported as -0.175.
With `AAAATTCT` the E-score was -0.0171.
`ACTAGGGG` has an E-score of -0.122.
`ACCGTCCG` has an E-score of 0.0982.
With `CAGCGTAA` the E-score was -0.0557.
`AAGCGCGG` has an E-score of -0.0619.
For `ATATGCAC`, the E-score was -0.0796.
`CCGCGCCG` gave an E-score of 0.244.
The E-score of `AGCTCAAT` is reported as 0.0295.
`ATGGGCTG` has an E-score of -0.0949.
With `GGAGTGAC` the E-score was 0.0622.
`TCAATCGA` has an E-score of -0.18.

Series 3
Target: UBE2E1 UBC core domain (UniProt P51965)
Chain of UniProt P51965 (whole entry, looked up): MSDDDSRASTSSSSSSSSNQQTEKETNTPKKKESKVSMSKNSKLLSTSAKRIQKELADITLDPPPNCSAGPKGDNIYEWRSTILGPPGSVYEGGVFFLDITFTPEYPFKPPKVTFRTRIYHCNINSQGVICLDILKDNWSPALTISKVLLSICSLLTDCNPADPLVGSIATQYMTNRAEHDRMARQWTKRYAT
Method: yeast two-hybrid
Matrix: yeast
Setting: mostly zero background
Relative to: not given
Reading: higher = stronger interaction
B1: MKRN2 RING domain (UniProt Q9H000); chain FAFQASQDKVCSICMEVILEKASASERRFGILSNCNHTYCLSCIRQWRCAKQFENPIIKSCPECRVISEFVIPSV
B2: RNF183 RING domain (UniProt Q96D59); chain EQQGRELEAECPVCWNPFNNTFHTPKMLDCCHSFCVECLAHLSLVTPARRRLLCPLCRQPTVLASGQP
B3: RNF187 RING domain (UniProt Q5TA31); chain ALPAGPAEAACALCQRAPREPVRADCGHRFCRACVVRFWAEEDGPFPCPECADDCWQRAVEP
B4: RLIM RING domain (UniProt Q9NVW2); chain SFGENDALKTCSVCITEYTEGNKLRKLPCSHEYHVHCIDRWLSENSTCPICRRAVLASGNRE
B5: RNF122 RING domain (UniProt Q9H9V4); chain AKKLQLYGQTCAVCLEDFKGKDELGVLPCQHAFHRKCLVKWLEVRCVCPMCNKPIASPSEAT
B6: TRIM22 RING domain (UniProt Q8IYM9); chain VKVDIEKEVTCPICLELLTEPLSLDCGHSFCQACITAKIKESVIISRGESSCPVCQTRFQPGNLRP
B7: RNF2 RING domain (UniProt Q99496); chain SPRSLHSELMCPICLDMLKNTMTTKECLHRFCADCIITALRSGNKECPTCRKKLVSKRSLR
B8: MYCBP2 RING domain (UniProt O75592); chain TSLKQDADDMCMICFTEALSAAPAIQLDCSHIFHLQCCRRVLENRWLGPRITFGFISCPICKNKINHIVLKD
B9: TRIM37 RING domain (UniProt O94972); chain SVESIAEVFRCFICMEKLRDARLCPHCSKLCCFSCIRRWLTEQRAQCPHCRAPLQLRELVN
`B1 (MKRN2 RING domain)`: “lacZ reporter activity” 0.
Under “lacZ reporter activity”, `MNDVLENELQCIICSEYFIEAVTLNCAHSFCSYCINEWMKRKIECPICRKDIKSKTYSL (RNF8 RING domain (UniProt O76064))` is recorded as 0.
`B2 (RNF183 RING domain)` — result for “lacZ reporter activity”: 0.
`B3 (RNF187 RING domain)`: “lacZ reporter activity” 0.
`RYRQMEERITCPICIDSHIRLVFQCGHGACAPCGSALSACPICRQPIRDRIQIF (MIB2 RING domain (UniProt Q96AX9))` — result for “lacZ reporter activity”: 0.
`B4 (RLIM RING domain)`: “lacZ reporter activity” 0.
`B5 (RNF122 RING domain)`: “lacZ reporter activity” 0.
`FVKTVEDKYKCEKCHLVLCSPKQTECGHRFCESCMAALLSSSSPKCTACQESIVKDKVF (TRAF3 RING domain (UniProt Q13114))`: “lacZ reporter activity” 0.
`B6 (TRIM22 RING domain)` — result for “lacZ reporter activity”: 0.
`KPDKMEETLTCIICQDLLHDCVSLQPCMHTFCAACYSGWMERSSLCPTCRCPVERICKNH (CHFR RING domain (UniProt Q96EP1))`: “lacZ reporter activity” 0.
Under “lacZ reporter activity”, `QVQSRTKIEECVVCSDKKAAVLFQPCGHMCACENCANLMKKCVQCRAVVERRVPFI (MIB1 RING domain (UniProt Q86YT6))` is recorded as 0.
`PEELAVNNDDCAICWDSMQAARKLPCGHLFHNSCLRSWLEQDTSCPTCRMSLNIADNNR (AMFR RING domain (UniProt Q9UKV5))`: “lacZ reporter activity” 0.
`B7 (RNF2 RING domain)` — result for “lacZ reporter activity”: 0.
`B8 (MYCBP2 RING domain)`: “lacZ reporter activity” 0.
Under “lacZ reporter activity”, `B9 (TRIM37 RING domain)` is recorded as 0.
Under “lacZ reporter activity”, `YPEEVDDDLICHICLQALLDPLDTPCGHTYCTLCLTNFLVEKDFCPMDRKPLVLQHCKK (LNX1 RING domain (UniProt Q8TBB1))` is recorded as 0.

Series 4
Target: RNA binding protein fox-1 homolog 2, RRM domain, GST-SBP tag (RBFOX2, Homo sapiens, UniProt O43251-10, residues 100-194)
Method: RNA Bind-n-Seq
Molecule type: RNA
Matrix: in vitro
Tested at: 365 nM
Setting: natural RNA segment, single round, ends assumed
Relative to: no-protein control
Reading: higher = stronger binding
Target sequence (chain): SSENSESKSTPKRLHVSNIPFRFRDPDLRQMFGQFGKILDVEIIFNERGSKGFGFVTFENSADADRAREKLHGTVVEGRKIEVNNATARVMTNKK
`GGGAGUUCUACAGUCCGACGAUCGCCCCUUCUGAAUCUCUCCAGCAGCCAGAGGCACGUGAGAAGCAGAAAGAGCUGGUAAAUAAAGCCUUGGGCAAGCGACUUCUUAGAUCAGAACUCACCAAAUGGAAGCCUGGAAUUCUCGGGUGCCAA` — result for “RBNS enrichment (R)”: 0.445.
`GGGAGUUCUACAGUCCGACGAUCUUACAGCUUUGCCAUGUCCCCACCUGCUGGCCUCAGGCUGCCUGGGCCUGGCCAGCUAUCCUUCUCUAUGCAAAUGCGUCAAAGCCAUGACUGCUGGAACCCAAAACUGAUGGAAUUCUCGGGUGCCAA` — result for “RBNS enrichment (R)”: 0.606.
For `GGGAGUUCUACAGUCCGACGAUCCGCUCUAAAAAUUACCAGAGUAAGAAAAAGCUAGGUACUUUAAAGUGAGUUUGAGAAACAAGUUGAAACUAAAAUUAAAAUACCAGCCAUUUAGGUGCUUUCUCUGGCAUUGGAAUUCUCGGGUGCCAA`, “RBNS enrichment (R)” read 0.386.
`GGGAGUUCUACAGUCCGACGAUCACCCAGUCAAAGCUCUGCCUUUCAGCCCACGUCAUACGUAGUGUCCAUCUUGUGAAGCCCUGUUGUGCCCCACAGUGUAGCCAGGCCCCCUGCAGCUAGUCAUAGUGAAGUGGAAUUCUCGGGUGCCAA` — result for “RBNS enrichment (R)”: 0.38.
`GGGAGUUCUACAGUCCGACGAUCCCAGGUGUGGAUUGACACACCUUUAGUCUCAGGACUGAGGAGGCGAGGCAAGCAGAUCCCUGAGUUUGAGGUAAGCCUGAUUUACAGAGCAAGUUCCAAGACACCAGGCAUGGAAUUCUCGGGUGCCAA` — result for “RBNS enrichment (R)”: 0.477.
For `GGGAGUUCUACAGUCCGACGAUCCUGGGAUGGCCGCCCUGCUCUGAGACUUGGCCACUCUUGUCCUGGCCAAGUGUUCUGCUUGCAUUUGCUUGGCUCUGGUACCAAAUAGUUGGGAUUCUUGAUGAAAUCCCUGGAAUUCUCGGGUGCCAA`, “RBNS enrichment (R)” read 1.61.
`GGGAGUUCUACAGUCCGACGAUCAUCUGUCCUUAAUGUCAAAUGAUGAAUCCAGUUUGAAUCAGCUGUCAUUCCAAGCUAUCAUGCUCACGCCAUGUCAACAGCACCAUUUGUACUAAUGCUAAUAAUUCCAUUGGAAUUCUCGGGUGCCAA` — result for “RBNS enrichment (R)”: 0.54.
`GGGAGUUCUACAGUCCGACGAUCGGAGCAGACUGUUUUAAGUUGCUCAGGAGCCUGAUGGAACCAUGAACCGAGACUCUUCUCUGUUUCCUGCCAAGACCUCAUCUGCACUAAUGCCUUCUCCCUGACCUUGAUGGAAUUCUCGGGUGCCAA`: “RBNS enrichment (R)” 0.553.
Under “RBNS enrichment (R)”, `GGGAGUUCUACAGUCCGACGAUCGCGGGGCUGAGCCACCCCCACAACCCUACCUUCUUCAUCCCCUCUGUCCCGUCUGUGGCAGAGGUUUCUGGCCAGAGGACCCUUCCCGGUUCAUCUCCCCUCAUCUUCUUUGGAAUUCUCGGGUGCCAA` is recorded as 1.01.
Under “RBNS enrichment (R)”, `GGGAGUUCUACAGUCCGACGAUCUUUCCCUGUGUGGACCAUGGGGAUCAGAGUCUGGCCUGCCAGGCUCCUCUCCCCGUUUUCUCUUUUGGUGGGGGGGUGUGCUGUGGGUAUUCACCACCCUGGGACCCCCCUGGAAUUCUCGGGUGCCAA` is recorded as 0.262.
`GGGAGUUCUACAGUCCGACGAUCGCCACUUGAACCUUCAAUAAAGGCUGUUGCCUAAACAUGGCGUACUUCAUCUGUUCCCGCCUCUGCCAUCUGCUACGGUGUCGUCAGUUGUAUGGCAUUAAUUUCCUGCCUGGAAUUCUCGGGUGCCAA` — result for “RBNS enrichment (R)”: 0.229.
`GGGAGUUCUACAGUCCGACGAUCGGCAUGGUGGCUGGAAGUAAAACUGCCAACUCUGGCCCUCAGAACUCUCAGGUAUAGAAGCCCAGGAUGUCUAAUACCCUGUCCCAGUGCCCGAGAGCUGCCUGGUGUCAUGGAAUUCUCGGGUGCCAA`: “RBNS enrichment (R)” 1.16.

Excerpt of the above (series 2):
`CAACGCAA` gave an E-score of 0.114.
`CTTTCCCC` gave an E-score of 0.0466.
With `AGAAACAA` the E-score was 0.118.
With `GCTGAGCA` the E-score was 0.142.
